Results collected from several papers.
A part holds a random share of what one study measured. Substitutions count along the parent as printed.

Block 1
Target: ABI1, truncated, D143A, DHFR fusion (Arabidopsis thaliana)
Technique: DHFR PCA, deep sequencing
Sample: yeast
Setting: methotrexate growth selection, single substitutions
Together with: (+)-ABA 58 µM
Relative to: wild-type fitted maximum
Direction: higher = stronger binding
Starting sequence: PYL1, truncated, DHFR fusion (Arabidopsis thaliana); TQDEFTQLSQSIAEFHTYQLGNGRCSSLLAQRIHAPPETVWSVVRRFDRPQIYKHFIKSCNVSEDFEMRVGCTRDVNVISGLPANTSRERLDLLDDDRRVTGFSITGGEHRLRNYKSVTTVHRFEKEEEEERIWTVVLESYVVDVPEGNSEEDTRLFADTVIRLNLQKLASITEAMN; partner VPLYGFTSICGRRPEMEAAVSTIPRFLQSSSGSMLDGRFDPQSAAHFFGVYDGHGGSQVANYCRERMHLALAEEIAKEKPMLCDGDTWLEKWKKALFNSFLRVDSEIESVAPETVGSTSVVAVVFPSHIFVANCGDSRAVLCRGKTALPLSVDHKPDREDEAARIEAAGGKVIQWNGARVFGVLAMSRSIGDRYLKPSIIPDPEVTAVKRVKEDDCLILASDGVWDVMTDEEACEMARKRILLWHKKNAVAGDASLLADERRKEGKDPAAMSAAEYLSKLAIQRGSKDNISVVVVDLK
Variant | relative binding score
T119G | -11.7%
E125A | 94.3%
E14Y | 49.5%
E4H | 93.3%
G81D | 14.5%
L28D | 5.55%
R90D | 10.2%
R24G | 56.2%
H110W | 22.7%
Q31F | 32.4%
V78C | 84.5%
G21H | 82%
I105Q | -4.25%
T173K | -5.87%
V44Q | 11.8%
S42G | 92.5%
I79R | 68.3%
T173P | -7.02%
V137L | 42.1%
R155H | 58.7%

Block 2
Target: Histone acetyltransferase KAT6A, winged helix 1, GST fusion (KAT6A, Homo sapiens, UniProt Q92794, residues 1-85)
Technique: protein binding microarray
Molecule type: double-stranded DNA, one strand shown
Sample: in vitro
Concentration: not given
Setting: 8-mer, flanks averaged, mean of 2 arrays, mostly near background
Relative to: not given
Direction: higher = stronger binding
Construct (chain): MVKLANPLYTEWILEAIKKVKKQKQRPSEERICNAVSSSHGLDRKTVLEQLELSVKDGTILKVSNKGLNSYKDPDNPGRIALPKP
Oligonucleotide | E-score
CAATGCTA | -0.23
CCGAGGAG | -0.0602
AAGTTCTC | -0.231
CACTGCAA | -0.127
GAGTGAAA | -0.209
CGGCTAAC | 0.364
CTGTAGCC | -0.15
AAGCTGAG | -0.088
ATCGTGTG | -0.163
CAAGCAAA | -0.33
CCCCCTAC | -0.0775
AGGGCTCC | -0.0595
CGATAAAA | 0.00817
CCTTATAG | -0.11
GGTGCCGA | 0.287
CATGACCG | 0.127
ATCGACCC | -0.143
GAAGCTCC | 0.0962
AAGTAATC | -0.137
ACGTCACA | -0.262
TCAGGTCA | -0.176
ACCGTGGC | 0.0425
CAGATTCG | -0.183
CGCTGCGA | 0.149
AAGCGGTG | 0.0883

Block 3
Target: RNA binding protein fox-1 homolog 2, RRM domain, GST-SBP tag (RBFOX2, Homo sapiens, UniProt O43251-10, residues 100-194)
Technique: RNA Bind-n-Seq
Molecule type: RNA
Sample: in vitro
Concentration: 365 nM
Setting: natural RNA segment, single round, ends assumed
Relative to: no-protein control
Direction: higher = stronger binding
Shared flanks, not repeated: GGGAGUUCUACAGUCCGACGAUC … UGGAAUUCUCGGGUGCCAA
Residues (chain): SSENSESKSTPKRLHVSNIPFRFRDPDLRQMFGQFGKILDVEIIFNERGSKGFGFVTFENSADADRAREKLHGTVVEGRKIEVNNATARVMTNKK
Oligonucleotide | RBNS enrichment (R)
CCUCUUUUCCGUCUCAAAGGAAGCUAACAUCUCAGGCACAGACAUAGCCAAAAGUCCAUACACCCAUUGCCAGGCACUCCCAUAAGUCACAUGUGAAUUUUCUCUACACA | 0.51
AGAGCCUGCUCCCCCACCCCCUCCCCAGGGGAGAGGGUCUGGAGAAGCAGUGAGCCGCAUCUUCUCCAUCUGGCAGGGUGGGAUGGAGGAGAAGAAUUUUCAGACCCCAG | 0.45
AGUAUUAAUAGUAGCUCAUUCUCUCUAAAAAUUUACUGCCCACUGAUAGGAUGUUUUGUUUCCUUGAUAAAACAAAUGUAAAUGAGGAAUUUUAUUUGAAUUGGAAUAUU | 0.733
UUUUCAGAGUCUGUAACAUUGAAGCCCUCCAUCAGAUCUACCUAUUACUGCUGCUUUAGAGCAUGAGUGCCUAGGUGCCUGGAUGCAUGUGUGCCCGGAUGCAUGGAUGC | 5.31
GUAGACUUGCUGCUGCUGAAUCCUUUCUGGGGACUUUCUCAUCGGGCAGGGAGCAGAGGGCUUCUCGUUCAUGCACCCUUUGCCUGAACACCCAUGUAGCUGCUGUGUUG | 0.284
CCUUUAUAGAGAAAGCCUUCCCUCAGCUCUUUUGUUACCUUGAGAUUUGCCAGUUUGGUGAAUACAGAUUGGUUCAUGGUUGUAGGUGUAGCUCAGAGUGCUUGUCUAAC | 0.272
ACACAGUGGGUUUGGUUGUAAGGCAGAUGUAAUAGAUGACUUCAAAAGCCUGCUCCUUACUGCACUCUGGACAAGGCCCUGGUCUGUAUAGUUUGGCUUCCUCUGUUAAG | 0.457
GCCUUUGUCCGAAAAAUCUAUACUAAUGUGAAAAUUGACUAGAGACCCAAGAAAACCUGGAACUUUGGAUCAAUUUCUUUUUCAUAGGGGUGGAACUUGCACAGCAAAAA | 0.336

Block 4
Target: CCNE1, cyclin fold, Cln2 fusion (human)
Technique: yeast growth competition, sequencing
Sample: yeast
Setting: strong parent motif
Relative to: not given
Direction: higher = stronger binding
Starting sequence: SCAPER docking peptide (human); SNARRSLNFGGST
Variant | normalised enrichment score
SNARRSLNFGGSC [T13C] | 1.37
SNARRSLNFGGSK [T13K] | 1.15
RNARRSLNFGGST [S1R] | 0.685
SNARSSLNFGGST [R5S] | 0.195
VNARRSLNFGGST [S1V] | 0.731
QNARRSLNFGGST [S1Q] | 0.495
SNARRSLNFVGST [G10V] | -0.905
SNTRRSLNFGGST [A3T] | 0.685
SNNRRSLNFGGST [A3N] | 0.988
SNARRSLPFGGST [N8P] | 0.0425
SNARHSLNFGGST [R5H] | 0.0213
SNYRRSLNFGGST [A3Y] | 0.429
SNAMRSLNFGGST [R4M] | -0.306
LNARRSLNFGGST [S1L] | 1.43
SNARRSLNFGGSL [T13L] | 1.89
FNARRSLNFGGST [S1F] | 1.84
SNLRRSLNFGGST [A3L] | 0.266

Block 5
Target: Sal-like protein 4, full length isoform A (SALL4, Homo sapiens, UniProt Q9UJQ4, residues 1-1053)
Chain of UniProt Q9UJQ4 (whole entry, looked up): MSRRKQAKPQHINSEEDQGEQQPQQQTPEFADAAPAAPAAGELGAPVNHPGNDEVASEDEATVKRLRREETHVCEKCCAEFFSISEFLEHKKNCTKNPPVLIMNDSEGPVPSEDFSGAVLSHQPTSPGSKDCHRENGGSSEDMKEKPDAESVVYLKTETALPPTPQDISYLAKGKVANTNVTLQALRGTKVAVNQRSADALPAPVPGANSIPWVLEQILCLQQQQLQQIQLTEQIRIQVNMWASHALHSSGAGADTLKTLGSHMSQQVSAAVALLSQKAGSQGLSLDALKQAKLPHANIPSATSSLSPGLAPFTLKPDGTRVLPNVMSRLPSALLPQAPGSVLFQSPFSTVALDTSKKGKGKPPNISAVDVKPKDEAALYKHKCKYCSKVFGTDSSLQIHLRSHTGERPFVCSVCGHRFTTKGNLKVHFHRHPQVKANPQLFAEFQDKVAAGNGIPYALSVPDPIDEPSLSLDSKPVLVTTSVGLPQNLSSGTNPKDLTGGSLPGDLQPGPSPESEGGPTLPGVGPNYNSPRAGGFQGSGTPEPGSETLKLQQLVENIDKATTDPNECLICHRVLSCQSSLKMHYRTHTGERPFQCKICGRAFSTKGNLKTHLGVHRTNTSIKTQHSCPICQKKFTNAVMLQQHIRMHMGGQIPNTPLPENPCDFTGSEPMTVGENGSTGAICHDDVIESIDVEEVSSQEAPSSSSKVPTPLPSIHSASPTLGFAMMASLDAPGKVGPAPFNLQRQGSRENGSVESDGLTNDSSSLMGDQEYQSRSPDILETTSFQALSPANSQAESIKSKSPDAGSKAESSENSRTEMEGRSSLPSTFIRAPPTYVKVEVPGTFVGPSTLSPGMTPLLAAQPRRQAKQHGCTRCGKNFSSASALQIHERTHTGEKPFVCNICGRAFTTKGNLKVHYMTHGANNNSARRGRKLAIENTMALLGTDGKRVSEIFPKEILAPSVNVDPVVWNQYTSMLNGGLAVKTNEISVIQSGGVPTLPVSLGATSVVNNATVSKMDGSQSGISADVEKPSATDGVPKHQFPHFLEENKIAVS
Technique: universal PBM
Molecule type: double-stranded DNA, one strand shown
Sample: in vitro
Concentration: 600 nM
Setting: 8-mer, flanks averaged, mean of replicates
Direction: higher = stronger binding
Oligonucleotide | E-score
ATGTTATC | 0.186
AAAGCGCA | -0.0948
GCTATGAA | 0.161
AAGGCAGA | -0.0333
GGAATTGA | 0.166
ATCGGGGA | -0.0013
ATACGTCC | -0.055
ATGTGCTG | 0.0646
AGGCAACG | -0.316
AAGTCGGA | -0.076
ATCAAGTA | 0.0992
GCCCTTAA | -0.0262
ATTACGTG | 0.158
AAATGTGC | 0.144
CACGCGAC | -0.124
ATGGACAA | 0.164
ACTCTTAG | -0.00094
ATTAATAC | 0.392
ACCCCGAG | -0.22
GACGGACC | -0.278
GACTAGAA | 0.0204
GCGTTAGC | -0.0359
CGTACATA | 0.324
AAATTCAG | 0.181
